Measurements pooled from the literature.
A part holds a random share of what one study measured. Several values in a cell are separate wells, animals, samples, runs or records.
Chain of UniProt P07333 (whole entry, looked up): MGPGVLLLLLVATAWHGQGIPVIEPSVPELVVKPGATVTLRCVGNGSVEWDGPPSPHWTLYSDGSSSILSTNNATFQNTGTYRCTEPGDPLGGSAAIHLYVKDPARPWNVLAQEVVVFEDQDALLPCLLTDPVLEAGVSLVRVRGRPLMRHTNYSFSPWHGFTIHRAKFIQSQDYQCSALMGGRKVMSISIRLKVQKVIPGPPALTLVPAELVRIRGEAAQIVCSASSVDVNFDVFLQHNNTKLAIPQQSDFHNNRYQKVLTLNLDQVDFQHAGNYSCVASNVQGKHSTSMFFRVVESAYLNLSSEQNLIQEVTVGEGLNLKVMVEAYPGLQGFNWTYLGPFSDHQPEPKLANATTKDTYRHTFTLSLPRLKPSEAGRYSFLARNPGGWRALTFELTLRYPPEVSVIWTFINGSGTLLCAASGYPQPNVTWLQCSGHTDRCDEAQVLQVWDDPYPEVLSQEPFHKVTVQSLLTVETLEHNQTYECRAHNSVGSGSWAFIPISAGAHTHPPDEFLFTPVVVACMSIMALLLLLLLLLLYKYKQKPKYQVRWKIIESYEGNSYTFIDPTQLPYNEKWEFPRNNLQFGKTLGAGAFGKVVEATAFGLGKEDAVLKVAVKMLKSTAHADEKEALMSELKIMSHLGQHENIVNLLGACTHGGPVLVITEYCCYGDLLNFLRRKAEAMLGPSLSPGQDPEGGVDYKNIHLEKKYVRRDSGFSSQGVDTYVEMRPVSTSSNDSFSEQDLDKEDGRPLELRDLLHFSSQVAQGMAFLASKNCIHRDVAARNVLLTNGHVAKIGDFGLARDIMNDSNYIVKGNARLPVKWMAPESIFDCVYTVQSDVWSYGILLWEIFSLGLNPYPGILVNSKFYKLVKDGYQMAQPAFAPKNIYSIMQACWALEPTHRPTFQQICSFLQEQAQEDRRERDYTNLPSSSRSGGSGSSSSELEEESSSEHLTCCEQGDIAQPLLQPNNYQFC
Chain of UniProt Q86Z02 (whole entry, looked up): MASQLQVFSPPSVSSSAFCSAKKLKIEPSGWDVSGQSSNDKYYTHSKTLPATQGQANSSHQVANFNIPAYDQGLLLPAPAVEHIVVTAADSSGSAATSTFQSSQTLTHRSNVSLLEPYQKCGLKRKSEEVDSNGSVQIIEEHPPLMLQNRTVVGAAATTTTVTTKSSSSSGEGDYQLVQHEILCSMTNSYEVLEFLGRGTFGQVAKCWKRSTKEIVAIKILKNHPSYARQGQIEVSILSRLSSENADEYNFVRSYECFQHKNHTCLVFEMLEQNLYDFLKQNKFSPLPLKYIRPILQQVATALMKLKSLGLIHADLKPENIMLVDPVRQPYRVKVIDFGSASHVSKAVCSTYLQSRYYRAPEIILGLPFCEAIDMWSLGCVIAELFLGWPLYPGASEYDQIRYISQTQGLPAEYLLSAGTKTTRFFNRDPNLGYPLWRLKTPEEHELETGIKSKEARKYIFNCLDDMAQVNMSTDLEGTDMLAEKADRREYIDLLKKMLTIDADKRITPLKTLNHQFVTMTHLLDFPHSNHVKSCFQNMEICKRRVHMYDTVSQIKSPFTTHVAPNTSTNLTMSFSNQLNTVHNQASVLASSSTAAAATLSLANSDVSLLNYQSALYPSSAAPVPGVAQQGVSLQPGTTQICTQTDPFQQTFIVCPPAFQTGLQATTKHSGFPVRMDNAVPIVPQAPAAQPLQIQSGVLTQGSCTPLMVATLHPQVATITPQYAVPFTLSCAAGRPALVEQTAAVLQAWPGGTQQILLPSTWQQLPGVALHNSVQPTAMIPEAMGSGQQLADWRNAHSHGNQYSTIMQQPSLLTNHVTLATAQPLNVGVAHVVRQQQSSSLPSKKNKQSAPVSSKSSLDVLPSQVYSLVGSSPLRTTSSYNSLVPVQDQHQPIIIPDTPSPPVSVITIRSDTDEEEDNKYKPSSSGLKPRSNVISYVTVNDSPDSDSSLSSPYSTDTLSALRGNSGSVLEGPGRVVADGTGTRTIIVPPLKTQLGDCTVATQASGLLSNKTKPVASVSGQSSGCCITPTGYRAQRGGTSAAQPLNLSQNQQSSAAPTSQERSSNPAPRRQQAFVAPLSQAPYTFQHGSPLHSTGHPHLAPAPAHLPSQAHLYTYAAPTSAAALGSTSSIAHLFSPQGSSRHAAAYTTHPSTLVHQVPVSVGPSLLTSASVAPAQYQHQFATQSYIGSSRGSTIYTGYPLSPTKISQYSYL
Chain of UniProt P42336 (whole entry, looked up): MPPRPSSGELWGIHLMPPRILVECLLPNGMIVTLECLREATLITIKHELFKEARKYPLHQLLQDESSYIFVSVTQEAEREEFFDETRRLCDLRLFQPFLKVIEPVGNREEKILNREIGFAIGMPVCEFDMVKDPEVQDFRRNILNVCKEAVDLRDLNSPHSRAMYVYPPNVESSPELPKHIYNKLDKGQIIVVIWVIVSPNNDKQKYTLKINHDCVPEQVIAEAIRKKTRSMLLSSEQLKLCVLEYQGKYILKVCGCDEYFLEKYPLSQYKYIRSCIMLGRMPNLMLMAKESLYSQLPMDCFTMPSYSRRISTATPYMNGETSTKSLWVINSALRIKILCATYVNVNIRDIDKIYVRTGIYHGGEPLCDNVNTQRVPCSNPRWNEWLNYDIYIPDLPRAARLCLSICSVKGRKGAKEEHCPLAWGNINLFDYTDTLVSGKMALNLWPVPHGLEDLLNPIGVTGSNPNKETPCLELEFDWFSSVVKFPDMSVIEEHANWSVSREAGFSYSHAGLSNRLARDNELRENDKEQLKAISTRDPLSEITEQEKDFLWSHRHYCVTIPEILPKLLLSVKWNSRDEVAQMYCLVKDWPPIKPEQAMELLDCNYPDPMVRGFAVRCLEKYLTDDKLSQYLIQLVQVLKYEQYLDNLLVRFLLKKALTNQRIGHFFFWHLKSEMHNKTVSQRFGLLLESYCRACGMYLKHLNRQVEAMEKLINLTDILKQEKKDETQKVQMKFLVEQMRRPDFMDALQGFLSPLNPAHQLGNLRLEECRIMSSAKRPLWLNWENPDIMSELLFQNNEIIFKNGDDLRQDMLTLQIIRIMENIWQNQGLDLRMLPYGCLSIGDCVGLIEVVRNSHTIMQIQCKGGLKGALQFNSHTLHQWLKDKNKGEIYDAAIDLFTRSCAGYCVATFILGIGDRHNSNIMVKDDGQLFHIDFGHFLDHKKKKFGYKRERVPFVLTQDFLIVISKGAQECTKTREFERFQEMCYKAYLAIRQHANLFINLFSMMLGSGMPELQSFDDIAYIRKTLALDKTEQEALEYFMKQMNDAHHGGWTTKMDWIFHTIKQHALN
Chain of UniProt Q9H2K8 (whole entry, looked up): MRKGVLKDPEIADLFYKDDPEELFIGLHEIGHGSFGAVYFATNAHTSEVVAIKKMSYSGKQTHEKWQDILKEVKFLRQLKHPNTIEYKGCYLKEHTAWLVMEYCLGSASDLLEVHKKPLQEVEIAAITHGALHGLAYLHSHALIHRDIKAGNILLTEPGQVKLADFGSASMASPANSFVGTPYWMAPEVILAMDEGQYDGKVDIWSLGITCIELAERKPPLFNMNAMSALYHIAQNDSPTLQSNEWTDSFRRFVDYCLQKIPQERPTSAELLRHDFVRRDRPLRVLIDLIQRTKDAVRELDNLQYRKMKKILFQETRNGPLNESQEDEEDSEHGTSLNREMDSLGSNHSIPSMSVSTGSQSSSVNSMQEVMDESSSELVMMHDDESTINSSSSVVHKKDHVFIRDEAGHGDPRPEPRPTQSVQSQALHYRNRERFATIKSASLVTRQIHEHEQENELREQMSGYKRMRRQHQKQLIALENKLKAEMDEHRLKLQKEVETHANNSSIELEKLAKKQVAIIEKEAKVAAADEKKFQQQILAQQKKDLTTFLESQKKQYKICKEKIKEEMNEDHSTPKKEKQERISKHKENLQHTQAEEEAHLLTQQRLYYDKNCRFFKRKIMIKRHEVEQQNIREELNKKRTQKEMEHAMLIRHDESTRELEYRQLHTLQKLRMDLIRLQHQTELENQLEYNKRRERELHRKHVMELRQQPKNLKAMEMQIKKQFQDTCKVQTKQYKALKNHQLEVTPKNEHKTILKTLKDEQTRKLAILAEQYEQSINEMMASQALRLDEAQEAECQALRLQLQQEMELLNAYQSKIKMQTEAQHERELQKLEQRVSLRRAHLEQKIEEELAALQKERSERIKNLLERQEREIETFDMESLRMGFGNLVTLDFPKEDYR
Chain of UniProt Q9UBE8 (whole entry, looked up): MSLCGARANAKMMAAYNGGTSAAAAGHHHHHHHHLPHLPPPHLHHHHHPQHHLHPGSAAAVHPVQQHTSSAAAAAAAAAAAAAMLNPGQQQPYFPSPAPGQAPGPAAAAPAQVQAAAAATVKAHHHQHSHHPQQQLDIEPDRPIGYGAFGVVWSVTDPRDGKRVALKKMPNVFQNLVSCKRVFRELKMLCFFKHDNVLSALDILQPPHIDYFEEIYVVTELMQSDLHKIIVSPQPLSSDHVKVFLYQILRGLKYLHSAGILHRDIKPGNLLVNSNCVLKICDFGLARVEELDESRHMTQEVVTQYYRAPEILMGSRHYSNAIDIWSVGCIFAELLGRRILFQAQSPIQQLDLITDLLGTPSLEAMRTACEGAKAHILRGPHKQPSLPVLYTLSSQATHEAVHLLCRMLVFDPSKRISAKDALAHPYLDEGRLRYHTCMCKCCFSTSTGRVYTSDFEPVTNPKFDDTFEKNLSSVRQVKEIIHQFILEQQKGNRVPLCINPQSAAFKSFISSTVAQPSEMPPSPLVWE
Chain of UniProt P53778 (whole entry, looked up): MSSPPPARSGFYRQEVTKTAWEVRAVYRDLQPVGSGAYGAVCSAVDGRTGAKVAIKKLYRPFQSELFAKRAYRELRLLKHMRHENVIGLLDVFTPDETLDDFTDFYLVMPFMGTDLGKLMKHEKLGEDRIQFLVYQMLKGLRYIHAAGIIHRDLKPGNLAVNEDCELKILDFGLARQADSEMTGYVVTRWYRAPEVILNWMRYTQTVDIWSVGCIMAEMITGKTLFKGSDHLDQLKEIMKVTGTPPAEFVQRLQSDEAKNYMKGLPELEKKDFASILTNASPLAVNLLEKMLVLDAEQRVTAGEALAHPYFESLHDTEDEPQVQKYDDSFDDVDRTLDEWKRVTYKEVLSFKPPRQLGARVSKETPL

Study 1
Structure (SMILES): COc1ccc2c(c1)O[C@@H](c1ccc(OC)c(OC)c1)C[C@H]2NC(=O)C1(c2ccc3c(c2)OC(F)(F)O3)CC1
Observed: cell-free assay
Method: competition with immobilised ligand
Concentration: 1 µM
Endpoint: remaining binding
target = Aurora kinase B (AURKB, Homo sapiens, UniProt Q96GD4); result = 84%
target = DCLK2 (Homo sapiens, UniProt Q8N568); result = 86%
target = PIK3CA (Homo sapiens, UniProt P42336); result = 86%
target = MAPK12 (Homo sapiens, UniProt P53778); result = 100%
target = SGK1 (Homo sapiens, UniProt O00141); result = 85%
target = Tyrosine-protein kinase ABL1, non-phosphorylated (ABL1, Homo sapiens, UniProt P00519); result = 86%
target = PIP5K1C (Homo sapiens, UniProt O60331); result = 92%
target = CLK2 (Homo sapiens, UniProt P49760); result = 96%
target = Macrophage colony-stimulating factor 1 receptor, autoinhibited (CSF1R, Homo sapiens, UniProt P07333); result = 82%
target = PIP5K1A (Homo sapiens, UniProt Q99755); result = 72%
target = HIPK2 (Homo sapiens, UniProt Q9H2X6); result = 96%
target = CSF1R (Homo sapiens, UniProt P07333); result = 100%
target = IRAK3 (Homo sapiens, UniProt Q9Y616); result = 85%
target = EGFR (Homo sapiens, UniProt P00533, del747-750/T751S); result = 100%

Study 2
SMILES: CN(C)CCCn1cc(C2=C(c3c[nH]c4ccccc34)C(=O)NC2=O)c2ccccc21
Observed: enzyme activity
Mode: inhibitor
Concentration: 0.5 µM
Relative to: control
Endpoint: remaining activity
target = NLK (Homo sapiens, UniProt Q9UBE8); result = 94%
target = PASK (Homo sapiens, UniProt Q96RG2); result = 67%
target = HIPK1 (Homo sapiens, UniProt Q86Z02); result = 96.6%
target = STK25 (Homo sapiens, UniProt O00506); result = 69.7%
target = FLT4 (Homo sapiens, UniProt P35916); result = 30.6%
target = SRC (Homo sapiens, UniProt P12931); result = 92.6%
target = AKT1 (Homo sapiens, UniProt P31749); result = 93.5%
target = NEK11 (Homo sapiens, UniProt Q8NG66); result = 104%
target = FGR (Homo sapiens, UniProt P09769); result = 90.9%
target = CDC42BPA (Homo sapiens, UniProt Q5VT25); result = 97.1%
target = TAOK3 (Homo sapiens, UniProt Q9H2K8); result = 67.6%
target = Cyclin-dependent kinase 3, with cyclin E (CDK3, Homo sapiens, UniProt Q00526); result = 93.2%
target = FYN (Homo sapiens, UniProt P06241); result = 88.3%
target = PRKX (Homo sapiens, UniProt P51817); result = 85.3%
target = ALK (Homo sapiens, UniProt Q9UM73); result = 87%
target = LIM domain kinase 1 (LIMK1, Homo sapiens, UniProt P53667); result = 94.7%
target = MARK3 (Homo sapiens, UniProt P27448); result = 72%
target = MATK (Homo sapiens, UniProt P42679); result = 100%
target = Insulin receptor (INSR, Homo sapiens, UniProt P06213); result = 88.9%
target = FER (Homo sapiens, UniProt P16591); result = 69.8%

Study 3
SMILES: C[C@@H]1[C@H](O)[C@@H](C)/C=C/C=C/C=C/C=C/C=C/C=C/C=C/[C@H](O[C@@H]2O[C@H](C)[C@@H](O)[C@H](N)[C@@H]2O)C[C@@H]2O[C@](O)(C[C@@H](O)C[C@@H](O)[C@H](O)CC[C@@H](O)C[C@@H](O)CC(=O)O[C@H]1C)C[C@H](O)[C@H]2C(=O)O
Organism: Leishmania donovani
Strain: DD8
Sample: promastigotes
Endpoint: promastigote number
setting = 160 µM, 24 h; result = 1.06e+06 and 1.05e+06
setting = 1660 µM, 48 h; result = 101000 and 151000
setting = 6660 µM, 48 h; result = 1570 and 1250
setting = 660 µM, 48 h; result = 326000 and 406000
setting = 66660 µM, 24 h; result = 1240 and 1350
setting = 30 µM, 24 h; result = 1.26e+06 and 1.27e+06

Study 4
Cell line: mouse MPNST tumor cells
Method: high-content nuclear imaging
Item: cell number
Concentration: 10 µM
Time: 12 h
Notes: mean of 2 replicates
Relative to: plate mean
Direction: higher = more cells
Endpoint: nuclei count
SMILES = Nc1ncnc2c1c(-c1ccc(Oc3ccccc3)cc1)nn2C1CCCC1; result = -0.116 z-score
SMILES = CC(c1cc2ccccc2s1)N(O)C(N)=O (stereo not drawn); result = 1.92 z-score and 1.55 z-score and 1.9 z-score
SMILES = COCCCOc1ccnc(C[S+]([O-])c2nc3ccccc3[nH]2)c1C (stereo not drawn); result = 2.34 z-score
SMILES = CCCN(CCc1cccs1)[C@H]1CCc2c(O)cccc2C1; result = -0.137 z-score
SMILES = Cc1cc(NC(=O)C(c2ccccc2)N2CCCc3ccccc32)no1 (stereo not drawn); result = -0.146 z-score
